Experimental data pooled from the literature.
Every numbered part comes from another study and shows a few of its results, in no order.

Block 1 — technique: RNA Bind-n-Seq; molecule type: RNA; sample: in vitro; concentration: 365 nM; reference: no-protein control; direction: higher = stronger binding
Target: RNA binding protein fox-1 homolog 2, RRM domain, GST-SBP tag (RBFOX2, Homo sapiens, UniProt O43251-10, residues 100-194)
Notes: natural RNA segment, single round, ends assumed
All sequences stand within: GGGAGUUCUACAGUCCGACGAUC … UGGAAUUCUCGGGUGCCAA
Construct (chain): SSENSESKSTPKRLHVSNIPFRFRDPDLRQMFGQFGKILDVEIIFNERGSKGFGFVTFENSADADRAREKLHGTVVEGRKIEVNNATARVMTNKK
Sequence | RBNS enrichment (R)
ACAUGCGGGGACGGUCUCAAAUGCGUGAUCAGAGAAUCCUUCACCUUUGCUGAAAAGUGAGCUCAGAUCCAGCACCAUGUUCCUCCUGACCCAUCCUGUCUAUCUUCUCA | 0.397
UAGCCAUGGAAGCAUAGCCACUGGAAAGGAACAGUGCAUGAGGCAGAUGUUCGUUUCUGGUGGAAAUUGGGCCCCUGUGUUCCUCCAGGGCAAGUCUCAGGGGAAGCUCA | 2.08
UCAUUAUGGAAAAUAACUUUUGGCAGUUUAGUUCCUAAUGUUAACAAUUCCUCUUUUUAAGAGAGGUACUACAUUUGAUUUCUCAAUUUCUCAGUUUGUUUUCAAUACAA | 0.46
UCAUAUUAGAUUCAUUAUUGAAAAAAAGUCAUCAAGUCAAUUUUAUGUGUCAAAAAUUAUUUCACUUGUAUGUGACUAUUAUCUUAACUUGUAACAAUUUAUGUUUUACA | 0.843
AUUUCCACCUCUGCCUUUAAGGCAUUUUUGUCACUGAAGCUGCUGUUCCCAAGAGAUCGGCAACCUUUUUGUCCCUUUCUCAUAAGAAAGGGACACUCCUACAGGUGAGA | 0.231
AUCACAGGUGAUUCACACGUACACACAUCCACACCCACACGUGCAGCCUGAAGUGACGUCCACAGAACCCGCCCUUGUCUUUGUACAUCGUAUGUACACUGCAAUCAUUU | 0.412
AACUGCUUUUAUGCAGGCUUUACCCCUGAAAAACUCCUUUCUACAGUGCUGCUCACGAGAGCCCAGCCAGUCUCAUGCCUGCAUUGCUGACUUGAACUCACAGUCGCCAA | 0.425
ACAGAGCCCAGAGAAACAGCAGCCAGAAUAUUAGUUCUGAUUCAUCCCCGAGGGAAGAGAGGUACCCAUGGCUUCAGUGAGCACAUGCCAAGCCCAGGAUGCCAGCUGGC | 0.412
CAUAGAGUGGAUAGGCAGACAGGUACUAUUGUAAUGUAUUCUGUAUUUAAUAAUUUAAUAUACUCUAGAAAGUAGACCUCAUGCAUUCUUUUAGCAUGAUUUUCUUUUAA | 1.66
AAUUAGUGGAUAGGUUAUUGUACUUCCAUUCAUACUCUGGGCACUUGUGUUAAAUUGUUCUGUUACACACUUUUGUCUAACCUGUUUUGUUUUUUAUCAUAUAUGCAUUA | 1.27
CUGCCGCCUUUGCUUUUGGUUGGGGGCAGAUUGGGUUGGAAUGCUUUCCAUCUCCAGGAGACUUUCAUGCAGCCUAAAGUACAGCCUGGACCACCCCUGGUGUGUAGCUA | 0.426
CACAUUCCUGCAGACAGCUAGUUGUUUUAUAGAAAUGUUAGGUUUCAUGUGUGUUACUAUUAGGUAUAUAUAGGCUAGAUUGUGCCCACUAUCCUGGAAGGUGGCAAGUU | 1

Block 2 — technique: protein binding microarray; molecule type: double-stranded DNA, one strand shown; sample: in vitro; concentration: not given; reference: not given; direction: higher = stronger binding
Target: Histone acetyltransferase KAT6A, both winged helices, GST fusion (KAT6A, Homo sapiens, UniProt Q92794, residues 1-181)
Notes: 8-mer, flanks averaged, mean of 2 arrays, mostly near background
Construct (chain): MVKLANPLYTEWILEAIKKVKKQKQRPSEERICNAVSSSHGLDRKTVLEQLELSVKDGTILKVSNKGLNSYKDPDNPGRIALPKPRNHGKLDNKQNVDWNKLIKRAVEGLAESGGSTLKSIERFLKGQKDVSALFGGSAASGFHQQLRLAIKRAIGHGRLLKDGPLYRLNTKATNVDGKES
Sequence | E-score
CATAACAG | -0.167
CGCGGCAA | 0.381
CGGGAATA | 0.218
CATCGGCA | 0.135
ACGAGTTA | -0.116
CTACCGCC | 0.192
AATACCTA | -0.137
CCATTCCG | 0.0714
CGGGATGA | 0.0753
CACACAGG | -0.218
AGCACGGC | 0.219
CCATGGGA | -0.143
GTCCGGGA | 0.166
AGATGTCG | 0.0593
CCTAGGAG | -0.134
CTTAGTGA | -0.106
AGTGCAAG | -0.111
CCTAATTA | -0.127
ATACTTTG | -0.154
CAGTCGGC | 0.139
GAATGCTC | -0.142
AGCACTTA | -0.203
CGCCCCTA | 0.106
CTCTAACC | -0.153
CATGGGAA | 0.0135

Block 3 — technique: RNA Bind-n-Seq; molecule type: RNA; sample: in vitro; concentration: 200 nM; notes: whole 134-nt RNA, ends assumed; with: 150 mM LiCl; reference: input library; direction: higher = stronger binding; each molecule: 7-deaza-guanosine replaces G
Target: Ras GTPase-activating protein-binding protein 1, full length (G3BP1, Homo sapiens, UniProt Q13283)
Sequence of UniProt Q13283 (whole entry, looked up): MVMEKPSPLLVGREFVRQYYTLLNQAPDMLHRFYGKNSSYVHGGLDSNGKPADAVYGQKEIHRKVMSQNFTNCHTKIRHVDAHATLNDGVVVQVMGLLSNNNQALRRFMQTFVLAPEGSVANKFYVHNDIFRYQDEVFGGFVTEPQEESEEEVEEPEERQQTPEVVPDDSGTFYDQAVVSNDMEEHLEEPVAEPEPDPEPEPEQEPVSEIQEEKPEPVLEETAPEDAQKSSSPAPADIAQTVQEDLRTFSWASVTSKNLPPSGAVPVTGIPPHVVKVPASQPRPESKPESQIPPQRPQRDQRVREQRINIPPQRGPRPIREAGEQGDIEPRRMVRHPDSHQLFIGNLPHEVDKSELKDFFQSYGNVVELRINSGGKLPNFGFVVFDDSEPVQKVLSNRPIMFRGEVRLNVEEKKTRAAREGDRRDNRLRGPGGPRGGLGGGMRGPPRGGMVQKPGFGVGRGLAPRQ
All sequences stand within: GGGAGUUCUACAGUCCGACGAUC … UGGAAUUCUCGGGUGUCAAGG
Sequence | log2 enrichment
GUCCUGUGCUACACAUCGUAUGUACCGAAUCGGGGUUUUUGGGGUUUUUGGGGAGGGGAAAGUAUUAUGUUACGCCGUUCGGAUCUGCAC | 0.155
ACCAUGCAGGUCGGCAUCUUUGGGAAGUGGGGCAAGGGGGGGAUAGGGAGGGGGGUAACACUUUGGGAACAGGUGGUCCCAGGUCGUUUC | 0.224
AAGUCCUGUGCUACACAUCGUAUGUACCGAAUCGGGGUUUUGGUUUUGGGGUUUUGGAAAGUAUUAUGUUACGCCGUUCGGAUCUGCACU | -0.0715
CCUGUGCUACACAUCGUAUGUACCGAAUCGGGGAAAGGGGAAAAAGGGGUUUUUUUGGGGAAAGUAUUAUGUUACGCCGUUCGGAUCUGC | 0.623
UGGCCCUGGUGGCAUGCGGGGAGGAAGAGGUGGCCUCAUGGAUCGUGGUGGUCCCGGUGGGAUGUUCAGAGGUGGCCGUGGUGGAGACAG | 0.41
UAACUUUAGAGGAGGAUCUGAUGGAUAUGGCAGUGGACGUGGAUUUGGGGAUGGCUAUAAUGGGUAUGGAGGAGGACCUGGAGAUGGCAA | -0.203
UCUGAGGUCACCAAGCCUCCUCCUUGCUUGGAGAACUCCUCGCCUCCCUCCAGGAUUCCGGAGCCUGAAUCCCCAGCGAAGCCAAACGUC | -0.0464
UGGCCCUGGUGGCAUGCGGGGAGGAAAAGGUGGCCUCAUGGAUCGUGGUGGUCCCGGUGGAAUGUUCAGAGGUGGCCGUGGUGGAGACAG | 0.0506
UGGGAGGUGGAUUUUGUUUAUUUUUUUAGCUCAUUGCCAGGGGUGGGAAUUUUUUUUUAAUAUGUGUCAUGAAUAAAGUUGUUUUUGAAA | 0.406
CCUCAAGUCCUGUGCUACACAUCGUAUGUACCGAAUCGGAGGAAAAAGGUGGAAAGUAUUAUGUUACGCCGUUCGGAUCUGCACUUCCAG | -0.682
CUCAAGUCCUGUGCUACACAUCGUAUGUACCGAAUCGGGGUGGGUGGGGUGGGAAAGUAUUAUGUUACGCCGUUCGGAUCUGCACUUCCA | -0.672

Block 4 — technique: RNA Bind-n-Seq; molecule type: RNA; sample: in vitro; concentration: 100 nM; reference: input RNA pool; direction: higher = stronger binding
Target: RING finger protein unkempt homolog, zinc fingers 1-6, SBP tag (UNK, Homo sapiens, UniProt Q9C0B0, residues 30-357)
Sequence of UniProt Q9C0B0 (30-357, looked up): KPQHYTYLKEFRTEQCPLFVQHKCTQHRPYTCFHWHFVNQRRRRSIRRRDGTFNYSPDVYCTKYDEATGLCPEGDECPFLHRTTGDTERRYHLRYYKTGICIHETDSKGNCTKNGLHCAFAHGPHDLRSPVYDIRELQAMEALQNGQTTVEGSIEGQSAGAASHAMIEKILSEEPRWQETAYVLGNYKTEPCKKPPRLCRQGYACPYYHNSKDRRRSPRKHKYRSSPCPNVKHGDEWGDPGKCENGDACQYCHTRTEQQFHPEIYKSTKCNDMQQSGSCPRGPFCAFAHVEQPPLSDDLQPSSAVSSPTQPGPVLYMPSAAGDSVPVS
Notes: RNA with constant flanks, vertebrate orthologous sites, ends assumed
All sequences stand within: GGGAGUUCUACAGUCCGACGAUC … CAACAGAGGAUUGAGCAUCA
Sequence | bound/input enrichment [ratio]
UCUAUAGAAUUUUAAAGACACUUCCUUAUAAAGCACUUUGGCUCCUCCUAUAUUUAAUCGUAUUUACAUAUCUAUUUUUUAUAAAUAACAGUAUGAAUUCAAAGGGGACUCGUGGUGUUA | 0.919
UUCAUCACUCCUGGGUGCGUGAUUGAGGGUGAAGCAUCCACCAGCACUGCAAGGGGUCCAUAGUAUUUUUUUUUUUUCUGCCUCAAAGUCCCCAAAACCUUCGAGCAGAUAUGGCAGUAG | 3.02
UGACCAUACAUAGACAAUGUGUAUCAAAUGCUGGUUGUAAAAUUAAAUCAUCAUCUAGAAUAGAGUUAAUUUGUUAUAAUCAAGCUACACAUAGGUUUUCUUAAACCAGAGGUGAUGCAC | 0.505
CUGUUGUUAAGCACUGUGUUCCAGACCGUGUCUGACUUUAGCGUAACCUAGGAGAUUUUAUAGUUUUAUUUUAAUGAAAUCCUGCUCGACGCAGAACAGCGGGGAGAGCAGUGUCUUCUG | 1.31
UUGUUUUGUACAGGGCAUUCUCUGUACAAAUUUGUUGUGGUUAUAAAACAAUUAGCAAAACAGCUUACAUUUGUAUUUAUUUUCUAUUCCAUACCUCUUCCCCAUGUAUUUUCUCCUCAA | 0.655
GUCCCCUGGGCCGGGACAGACUUUUUUUUUAAAUGUCUUGAAACCUAAACUCUGUGCUUGUAGAAGACUGUAACCUUUUUGUCUUUUUUUUUUUUUUUUAAAAAACCAACAACCUCCACC | 0.786
UUUAUUUUUGAGGAGGCAGAAGUUUCUUCUCUCCUUCAAGUAAAACUGAAUUAAUUUGCUUUUAUUUCUGUCUUGGAAAACAAAGAUGGCCUAUUCUCUUAACUGUGUUACAAUACCAUC | 0.224
AGCAGUUAGGAUGGGCCAUUCCUCUGCAUUUCCCAUGAGGAGAAAAGCCCAAAUCGAUGACACACGUUUCACACAUCUGAUGAUGAUCUUUUUGUUUUCUGCUUUUGCGUAUGCAUCAAA | 0.375
GUCCAAAUAUCUAUAGUCAUUCCUAUAGGAGGUAUAACAUUUAACAACAAAUGUAUCAUAUCUAGUUAAACCGAAUAUAUUUUUAUUAGCCUGUAAAUACUCUUCUGUACUUCAGUGAUU | 1.87
AGUAAGAGUUGAAAGAAUUGUACGAGGUAGUGGUGAAAAAGUAGGAGCAGUUUGGAAGAGUAGUUACAAAUAUCAAGAGCCAGUUGGCUCAGAAGUGGAGGUGCAGAUCAUUGAAUCUCA | 0.725
UUACAGUCAUUGAUGGACUCUAUUUUUUUAUUAUUACUUGGACCUUGGUCGUUUUUAUACUAGCAAAAUGUCUUGUUUUGAUUUGUGUUUUUUUUUGGGGGGGGGAGGGCGUGAACUUGC | 2.13

Some of these lines once more (block 4):
Sequence | bound/input enrichment [ratio]
CUGUUGUUAAGCACUGUGUUCCAGACCGUGUCUGACUUUAGCGUAACCUAGGAGAUUUUAUAGUUUUAUUUUAAUGAAAUCCUGCUCGACGCAGAACAGCGGGGAGAGCAGUGUCUUCUG | 1.31
UUGUUUUGUACAGGGCAUUCUCUGUACAAAUUUGUUGUGGUUAUAAAACAAUUAGCAAAACAGCUUACAUUUGUAUUUAUUUUCUAUUCCAUACCUCUUCCCCAUGUAUUUUCUCCUCAA | 0.655
GUCCCCUGGGCCGGGACAGACUUUUUUUUUAAAUGUCUUGAAACCUAAACUCUGUGCUUGUAGAAGACUGUAACCUUUUUGUCUUUUUUUUUUUUUUUUAAAAAACCAACAACCUCCACC | 0.786
UUUAUUUUUGAGGAGGCAGAAGUUUCUUCUCUCCUUCAAGUAAAACUGAAUUAAUUUGCUUUUAUUUCUGUCUUGGAAAACAAAGAUGGCCUAUUCUCUUAACUGUGUUACAAUACCAUC | 0.224
